Measured values pooled from the literature.
Each line is one published result; not all experiments were run side by side. “And” joins repeats or separate records; there may be more than shown. ± marks the error that the study gave.

`C=CCN1CC(=O)N2[C@@H](Cc3ccc(O)cc3F)C(=O)N(Cc3cccc(N4CC(N5CCN(CC)CC5)C4)n3)C[C@@H]2N1C(=O)NCc1ccccc1` — result for “treatment-related adverse events”: 13.9% (refers to: decreased appetite; human advanced solid tumours; concentration not given, dose escalation any grade).
`CCCC1CCC(C2CCC(c3cc(F)c(F)c(F)c3)CC2)CC1` (stereo not drawn) has a fetal accumulation of 0.249 ± 0.672 ng/g (rat, fetus; 1000 ng/mL in perfusate, middle dose, mixture of 21 LCMs).
`Cc1cc(Nc2ccc(S(F)(F)(F)(F)F)cc2)n2nc(C(C)(F)F)nc2n1` — result for “adverse event Vomiting”: 0% (Plasmodium falciparum malaria patients; oral, 400 mg).
For `O=C(O)CC(O)(CC(=O)O)C(=O)O`, “body weight reduction” read ~62% (Wistar rat; 1000 mg/kg, week 4).
`CO[C@@H]1[C@H](O)[C@@H](CO)O[C@H]1n1c([N+](=O)[O-])nc2c(=O)[nH]c(N)nc21` has a depurination half-life of 11 h (citrate phosphate buffer; 0.5 mM, pH 2.15, 37 °C).
With `COc1cccc(OC)c1-c1cc(C(=O)NC2(C(=O)O)C3CC4CC(C3)CC2C4)nn1-c1ccc(C(=O)N(C)CCCN(C)CCCN(C)C(=O)CN2CCN(CC(=O)[O-])CCN(CC(=O)[O-])CCN(CC(=O)[O-])CC2)cc1C(C)C.[177Lu+3]` (stereo not drawn) the tissue uptake was 0.06 %ID/g (mouse, HT-29 xenograft, muscle; 24 h post injection).
Under “Irwin test score”, `O=C1NCCc2nc(OCc3cccc(F)c3)ccc21` is recorded as 0 (refers to: Miosis; Sprague-Dawley rat male; oral, 100 mg/kg, 0 min; relative to: baseline, direction not given).
`CCOCc1nc(O)c(-c2nnc(Cc3ccc(Cl)cn3)o2)c(O)c1-c1c(OC)cccc1OC` gave a plasma concentration of 54 nM (rat, anaesthetised, cannulated, plasma; intravenous infusion, 1 µg/kg/min, 5 min).
With `Cl.[2H]C([2H])([2H])CC(=O)c1cnc(NC(=O)C2CC2)cc1Nc1cccc(-c2ncn(C([2H])([2H])[2H])n2)c1OC` the half-life was 4.94 h (geometric mean; human; oral, 40 mg twice daily, day 1, fed, liquid, multiple dose).
`CN1C[C@H](COc2nccc3c(NCc4ccco4)cc(Cl)nc23)OC1=O` — result for “adverse necropsy findings”: “negative” (rat Crl:CD(SD) male; oral, 100 mg/kg, single dose).
`CCCCc1ccc(-c2ccc(C#N)cc2)cc1` gave a fetal accumulation of 0.047 ± 0.048 ng/g (Sprague-Dawley rat, female, fetus; 1000 ng/mL in perfusate, 50 (unit not given), middle dose, mixture of 21 LCMs).
Under “oxidation peak potential”, `Cc1occc(=O)c1[O-].[Cl-].[W+4].c1cc[cH-]c1.c1cc[cH-]c1` is recorded as 0.67 to 0.73 V (cyclic voltammetry; acetonitrile; relative to: Ag/AgCl).
`COc1c(O)c(C)cc2c1C(=O)c1c(cc(O)c(O)c1O)C2=O` gave a viability of 87.1 ± 5.84% (HK-2 co-cultured with HepaRG; MTT; 16.67 µM, 48 h; relative to: untreated control).
For `NC1(C(=O)N[C@@H](CCO)c2ccc(Cl)cc2)CCN(c2nc[nH]c3nccc2-3)CC1`, “systemic inflammatory response syndrome incidence” read 6.7% (human mCRPC patients; oral, twice daily, 4/7 days, any grade, treatment-related, together with: enzalutamide 160 mg daily).
With `CO[C@H]1C[C@@H]2CC[C@@H](C)[C@@](O)(O2)C(=O)C(=O)N2CCCC[C@H]2C(=O)O[C@H]([C@H](C)C[C@@H]2CC[C@@H](OC(=O)NCCOCCOCCOCCOCCOCCOCCOCCOCCC(=O)N3CCc4cc(Cn5nc(-c6ccc7oc(N)nc7c6)c6c(N)ncnc65)ccc4C3)[C@H](OC)C2)C[C@@H](O)[C@H](C)/C=C(\C)[C@@H](O)[C@@H](OC)C(=O)[C@H](C)C[C@H](C)/C=C/C=C/C=C/1C` the Tmax was 0.98 h (human, plasma; intravenous, 6 mg, cycle 1 day 1, arithmetic mean).
With `CC[C@H](C)CCCCC(=O)N[C@@H](CCN)C(=O)N[C@H](C(=O)N[C@@H](CCN)C(=O)N[C@H]1CCNC(=O)[C@H]([C@@H](C)O)NC(=O)[C@H](CCN)NC(=O)[C@H](CCN)NC(=O)[C@H](CC(C)C)NC(=O)[C@@H](Cc2ccccc2)NC(=O)[C@H](CCN)NC1=O)[C@@H](C)O` the urinary excretion was 1.67% (human, normal renal function, urine; intravenous, 0.75 mg/kg, 0-24 h, arithmetic mean).
For `CCO[C@H]1CCN(Cc2c(OC)cc(C)c3[nH]ccc23)[C@H](c2ccc(C(=O)O)cc2)C1`, the unbound AUC0–12 was 4180 ng·h/mL (human moderate hepatic impairment, plasma; oral, 200 mg single dose, median).
`CC(=O)c1c(C)cc2cc(O)cc(O[C@@H]3O[C@H](CO)[C@@H](O)[C@H](O)[C@H]3O)c2c1O` has a cell viability of 98.4 ± 3.92% (HK-2 co-cultured with HepaRG; MTT; 66.67 µM, 48 h; relative to: untreated control).
`OC[C@H]1O[C@@H](c2ccc(Cl)c(Cc3ccc(O[C@H]4CCOC4)cc3)c2)[C@H](O)[C@@H](O)[C@@H]1O` — result for “change in Total cholesterol”: 0.17 mg/dL (Japanese type 1 diabetes patients, blood; 10 mg, day 28; relative to: baseline).
Under “change in log KAW”, `C[Si](C)(C)O[Si](C)(C)C` is recorded as 1 log units (concentration not given, temperature rise 30 °C).
The retention factor of `CC[C@H](C)[C@H](NC(=O)[C@H](CCCNC(=N)N)NC(=O)[C@H](CCC(=O)O)NC(C)=O)C(=O)N[C@H]1CSSC[C@@H](C(=O)N[C@H](C(N)=O)[C@@H](C)O)NC(=O)[C@H](CCCNC(=N)N)NC(=O)[C@H](Cc2c[nH]cn2)NC(=O)[C@H](C)NC(=O)CNC(=O)[C@H](Cc2c[nH]c3ccccc23)NC(=O)[C@H](CC(=O)O)NC(=O)[C@H](CCC(N)=O)NC(=O)[C@H](Cc2c[nH]c3ccccc23)NC(=O)[C@H](C(C)C)NC1=O` is reported as 0.62 ± 0.015 (RP-HPLC, C18; 28% acetonitrile isocratic; pH 7.4).
For `Cc1nc(-c2ccc(OCC(C)C)c(C#N)c2)sc1C(=O)O`, “geometric mean ratio AUC(0-24)” read 91.6 (human, plasma; oral, 40 mg, together with: verinurad 10 mg; relative to: test over reference).
Under “systolic blood pressure”, `COc1ccc2c(c1)CN(C(=O)CCN1CCC(Cc3ccccc3)CC1)CC[S@@+]2[O-]` is recorded as 141 ± 22 mmHg (telemetry; conscious male beagle dogs; intravenous, NG, 24 h).
`N#Cc1ccc2c(c1)[C@H]1CCCN(C(=O)c3ccc4[nH]cnc4c3)[C@H]1C2` — result for “pre-dose plasma concentration”: 1740 nmol/L (human, plasma; 80 mg once daily, day 21).
Under “share of total radioactive residue”, `COc1ccnc(C(=O)N[C@H]2COC(=O)[C@H](Cc3ccccc3)[C@@H](O)[C@H](C)OC2=O)c1O` is recorded as ≤ 17 % TRR (laying hens, female, fat; oral, 10.7 mg/kg dry feed, 7 days).
For `Cc1cc(Nc2ncnc3ccc(NC4=NC(C)(CO)CO4)cc23)ccc1Oc1ccn2ncnc2c1` (stereo not drawn), “AUC(0-inf) (geometric mean)” read 328 ng·h/mL (human, plasma; tucatinib, day 10, together with: rifampin once daily).
For `C[C@H]1O[C@@H](O[C@H]2CC[C@@]3(C)[C@@H](CC[C@]4(C)[C@@H]3C=C[C@]35OC[C@@]6(CCC(C)(C)C[C@H]63)[C@@H](O)C[C@]54C)[C@]2(C)CO)[C@H](O)[C@@H](O[C@@H]2O[C@H](CO)[C@@H](O)[C@H](O)[C@H]2O)[C@H]1O`, the plasma concentration was 3.53 ng/mL and 3.36 ng/mL (UHPLC-MS/MS; mouse, plasma; oral, 50 mg/kg, 2 h, pooled samples).
`CCC(C)n1ncn(-c2ccc(N3CCN(c4ccc(OCC5COC(Cn6cncn6)(c6ccc(Cl)cc6Cl)O5)cc4)CC3)cc2)c1=O` (stereo not drawn): “trough plasma concentration” 183 ng/mL (human, plasma; oral, dose not given, day 17 predose, mean).
The parent fraction of `COc1ccc(NC(=O)c2cnc(N3CCN(c4ccccn4)CC3)nc2N)cc1` is reported as 24% (male rhesus monkey, venous plasma; intravenous, 105 MBq, 17 min).
For `O=C(Nc1nc2cccc(-c3ccc(CN4CCS(=O)(=O)CC4)cc3)n2n1)C1CC1`, “treatment-emergent adverse events” read 0% (refers to: headache; human rheumatoid arthritis patients; oral, 150 mg once daily, 4 weeks, regardless of relatedness).
`Cc1cc(C)c(CNC(=O)c2cc(Cl)c3c(c2C)O[C@@](C)([C@H]2CC[C@H](N(C)C)CC2)O3)c(=O)[nH]1` — result for “serious acute respiratory failure”: 0% (human relapsed/refractory NHL; oral, 200 mg once daily, onset day 1 to 14).
With `CCN1/C(=C/C(C)=O)Sc2ccc(F)cc21` the QT interval was 277 ± 39 ms (cynomolgus monkey; oral, 30 mg/kg, 4 h post-dose).
With `O=C(O)CCC(=O)O.[2H]C([2H])([2H])Oc1cc(C)c2[nH]ccc2c1CN1CC[C@@H](C2CC2)C[C@H]1c1ccc(C(=O)O)cc1` the Tmax was 3.5 h (human, plasma; 100 mg twice daily, day 1, multiple ascending dose, median).
With `COc1ccc2c(=O)n(C)c(-c3ccccc3)nc2c1` the tissue concentration was 154 ng/g (male Sprague-Dawley rat, bladder; oral, 30 mg/kg, 2 h).
With `N#Cc1ccc2c(c1)[C@H]1CCCN(C(=O)c3ccc4[nH]cnc4c3)[C@H]1C2` the DHEA-S level was 5 µmol/L (human, female; 240 mg, day 7).
`CN(C(=O)n1cnc(-c2cccnc2)c1)C1CCCCC1` gave a concentration of 86.5 ± 15.3 ng/g (Wistar rat, hippocampus; oral, 10 mg/kg of BIA 10-2474, 1 h, single dose).
`CNC(=O)c1ccc(-c2cnc3ncc(Cc4ccc5ncccc5c4)n3n2)cc1F` — result for “patients with adverse event”: 0% (refers to: Dyspnea; gastric cancer patients; oral, 600 mg twice daily, expansion cohort, grade 3-4).
The recovery of `C=CC(=O)Nc1cc(Nc2nccc(-c3cn(C)c4ccccc34)n2)c(OC)cc1N(C)CCN(C)C` is reported as 97.9% (storage stability; human dried blood spot; 30 d, -80 °C, HQC level).
The Tmax of `CCOc1c([C@H](C)n2nc(C)c3c(N)ncnc32)cc(Cl)c(F)c1[C@@H]1CNC(=O)C1` is reported as 0.8 h (patients with B-cell malignancies, plasma; oral, 20 mg, day 1, monotherapy).
`Cn1cc(Nc2nccc(-c3ccc4c(c3)CN(C3COC3)CC[C@H]4NC(=O)c3cn(C(C)(C)C)nn3)n2)cn1`: “lymphocyte count change” 28.3% (human, whole blood; 50 mg twice daily, day 7; relative to: pre-dose baseline).
`CCC(C)n1ncn(-c2ccc(N3CCN(c4ccc(OCC5COC(Cn6cncn6)(c6ccc(Cl)cc6Cl)O5)cc4)CC3)cc2)c1=O` (stereo not drawn) — result for “adverse event incidence”: 7% (refers to: throat irritation; healthy human participants; oral, 200 mg, compound alone cohort).
`Cc1ccc([C@@H]2O[C@H](CO)[C@@H](O)[C@H](O)[C@H]2O)cc1Cc1ccc(-c2ccc(F)cc2)s1`: “urinary sodium excretion change” 7.47 mEq (Japanese type 2 diabetes patients; 100 mg, day 15, 24 h urine collection; relative to: baseline).
`Cc1cc(-c2nnc(N)nc2-c2ccc(F)cc2)cc(Cl)n1` — result for “incidence of AE, immune-mediated, treatment-related”: 0% (refers to: obliterative bronchiolitis, all grades; male IO-naive mCRPC patients; oral, dose not given).
Under “change in clinical chemistry or haematology parameter”, `CCc1cc(C(=O)NC)c2nccc(N3CCc4c(cc(Cn5ccnc5)cc4-c4cn(C)nc4C(F)(F)F)C3=O)c2c1` is recorded as 0% (refers to: HGB; Sprague Dawley rat; oral, 100 mg/kg once daily, 7 days; relative to: vehicle).
Under “participants with TEAE”, `Cc1ccc(Sc2ccccc2N2CCNCC2)c(C)c1` is recorded as 0% (refers to: Thirst; healthy adult men; oral, 10 mg daily, 12 days).
With `Cc1nc2cccc(OCC(C)(C)C(=O)NC(C)C)c2c(N)c1C(=O)O` the Cmax ratio was 1.23 (female Sprague-Dawley rat, plasma; dietary, 60 mg/kg/day; relative to: day 90 over day 7).
The Vss of `CNC(=O)c1cccc(-c2ccc(O[C@H]3O[C@H](CO)[C@@H](O)[C@H](O)[C@@H]3O)c(C)c2)c1` is reported as 0.965 L/kg and 1.85 L/kg and 1.16 L/kg (Sprague-Dawley rat, male, plasma; intravenous, 3 mg/kg).
`CC[C@H](C)[C@H](NC(=O)[C@H](CO)NC(=O)[C@H](CCCNC(=N)N)NC(C)=O)C(=O)N[C@H]1CSSC[C@@H](C(=O)N[C@H](C(N)=O)[C@@H](C)O)NC(=O)[C@H](CCCNC(=N)N)NC(=O)[C@H](Cc2c[nH]cn2)NC(=O)[C@H](Cc2cccc3ccccc23)NC(=O)CNC(=O)[C@H](Cc2c[nH]c3ccccc23)NC(=O)[C@H](CC(=O)O)NC(=O)[C@H](CCC(N)=O)NC(=O)[C@H](Cc2cccc3ccccc23)NC(=O)[C@H](C(C)C)NC1=O` has a retention factor of 7.076 ± 0.005 (isocratic RP-HPLC, C18; 32% acetonitrile, phosphate pH 7.4, 1% TFA; 25 °C).
For `COc1cc(N2CCC3(CCN(C)CC3)CC2)ccc1Nc1ncc(Cl)c(Nc2ccccc2P(C)(C)=O)n1`, “food effect on Ka” read 0.588 (population PK model; human; oral, base structural model, unit not given; relative to: fasting).
`C#Cc1cccc(Nc2ncnc3cc(OCCOC)c(OCCOC)cc23)c1` has a dose-adjusted solubility of 8.27e-05 mL⁻¹ (FaSSIF; literature solubility over dose).
For `CC(C)(C(=O)N1CCOc2c(C#N)cncc2C1)C(F)F`, “subjects with adverse event” read 16.7% (refers to: Vomiting; human; oral, 40 mg, CSF pharmacokinetic cohort).
